Experimental data gathered from unrelated publications.
Every numbered part comes from another study and shows a few of its results, in no order.

Set 1 — technique: RNA Bind-n-Seq; molecule type: RNA; sample: in vitro; tested at: 365 nM; relative to: no-protein control; reading: higher = stronger binding
Target: RNA binding protein fox-1 homolog 2, RRM domain, GST-SBP tag (RBFOX2, Homo sapiens, UniProt O43251-10, residues 100-194)
Setting: natural RNA segment, single round, ends assumed
Shared flanks, not repeated: GGGAGUUCUACAGUCCGACGAUC … UGGAAUUCUCGGGUGCCAA
Target sequence (chain): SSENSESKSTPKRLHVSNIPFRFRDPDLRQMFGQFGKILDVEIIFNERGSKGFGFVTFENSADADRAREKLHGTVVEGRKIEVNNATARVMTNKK
Strand	RBNS enrichment (R)
CAUGGCAAAUCUGAUUUGUGUAGUGUGCUUACAAUGCUCAUUUGUUUUCAAAUUGGUGGAAAAGAGAAACUGCAGGAAAACUAUUCAUGUUUGAGUUUUACGCAGUAUAU	0.928
GGGAGCUCUGAAGAAGGAGCUCUGAAGGAAAGGAACAUUGUAUCUGGACAGCAAGCAAGCCAUUUCCCCCCAUGUUCUCUUUCCUUCCUCCUACCCAUACUUCCUUCUCU	0.319
GCUGAAGUGGCCACCAGGGGUCAGCAGUGCUCCAGUUGCUGGGCUUAAAGCUUCCUGGUGCCUGUCUGCCAGGUCAUGGAGGAUUCCCCAAUCUGGCAUCCCCACGAUGC	0.212
ACGGUCCCCCCUCACUCCACACUGGCACGUUUGUGAGAAGAAAUGACAUUUUGCUAGGAAGUGACCGAGUCUAGGAAUGCUUUUAUUCAAGACACCAAAUUCCAAACUUC	1.4
AUAAGGCAGUUGAACCUGAUGAGCAAGAAUUAUAACAGCAAGGAAACAUUAAUGCUUAGAAUUCUGAGAUCCAGCACAACUCAGUCUGUGGGAGCUCAGCUCGCUGCCCA	0.449
CCUCUGCAGCCAGAUUUCUAUAUUGGGAGUUUUUUAAAAAGACAUUUCAUAGCCAACAAGAAUCAGUAGAAGUGCUGGGAGCAGCAGCUGGGGAAGCUGCCGCCCACGGG	0.548
AGCUGUUUUAGCUGAGGGACGUGGUGCCGACGUCCCCAAACCUAGCUAGGCUAAGUCAAGAUCAACAUUCCAGGGUUGGUAAUGUUGGAUGAUGAAACAUUCAUUUUUAC	0.239
UUCCCUCUUUUUAAACUACAUUGUGUUAGAGUCAUAGUCUAGGAUCCUGAGAGAUUUUCCAUUCUUGUCACCAUUCACUUGCAUUGUAAAGAUUUUCUUUGUCUGUUGUU	0.615

Set 2 — technique: universal PBM; molecule type: double-stranded DNA, one strand shown; sample: in vitro; tested at: not given; reading: higher = stronger binding
Target: Sal-like protein 4, full length isoform B (SALL4, Homo sapiens, UniProt Q9UJQ4-2, residues 1-616)
Setting: 8-mer, flanks averaged, mean of replicates
Strand	E-score
CGTTACTC	-0.115
ATAATCCA	0.28
AAACCCGT	-0.0809
AATTCAAT	0.257
ATTGTAAG	0.235
GAGCGAGC	-0.132
ATAATTTC	0.379
CTAATGAC	0.14
CTCGTAGC	-0.0949
AACATACG	0.176
AGATTAAT	0.303
CTATCTGC	-0.199
CTCCCGTC	-0.142
GAACGGCA	-0.0477
GCTCCAGA	-0.204
AGCGAGAC	-0.317
CGCATGAG	-0.138
ACTGCTTC	-0.19
GCCTCATA	0.147
ATCGTGGC	0.0313
ACCGGAAC	-0.321
GCTGTAAC	-0.136
ACCGATAT	0.142
ATGGGGCG	-0.137

Set 3 — technique: protein-binding microarray; molecule type: double-stranded DNA, one strand shown; sample: in vitro; tested at: 940 nM top; setting: 60-bp whole probe; with: salmon DNA 0.4 mg/ml; relative to: random background probes; reading: higher = stronger binding; shared flanks, not repeated: GCCTAGCAC … GTCTTGATTCGCTTGACGCTGCTG
Target: Interferon regulatory factor 5, full length, phosphomimetic (IRF5, Homo sapiens, UniProt Q13568-2, residues 1-514, S451D/S453D/S456D/S462D)
Strand	fitted relative affinity [z-score]
TTAGGTATCCTTTTACTTTAGTGCTAG	0.75
GACGGTCTCGTTTTCCTGACGTGCTAG	2.56
GACGGTATCGGTCTCGGGATGTGCTAG	7.84
GACTGTATCGGGTTTCGGGACGTGCTA	3.05
CCCTTACCGCATATCGGGGTGTGCTAG	-0.277
TACGATATCAGTTTCGAGACGTGCTAG	3.55
GACGGTATCGACGTTCGGGACGTGCTA	3.57
TTATAACTGAGTATCGATTAGTGCTAG	4.51
GGCGGACTGCTTCTCCTGACGTGCTAG	-0.334
GACGGACTGGGGTATCGGGAAGTGCTA	0.155
CTGATTTCCACTTTCTTAATGTGCTAG	1.9
TTAGGATTGGGACTGGGTTAGTGCTAG	-0.422
TTAGAACTGGGGACTGGAGTAGTGCTA	-0.279
TTATGACTGCTACTGCTTTAGTGCTAG	-0.358
TTAGGTACCGGACTGGGTTAGTGCTAG	-0.134
GACGGACTGGGTTTCGGCACGTGCTAG	2.81
TGAGGTTTCCTTTCCCTTTAGTGCTAG	1.53
GACGGCATCGGTTTCGGGACGTGCTAG	2.76
TCAACTTTTTTTTTTCCACTGTGCTAG	1.14

Set 4 — technique: RNA Bind-n-Seq; molecule type: RNA; sample: in vitro; tested at: 1 µM; setting: whole 134-nt RNA, ends assumed; with: 150 mM KCl; relative to: input library; reading: higher = stronger binding
Target: Ras GTPase-activating protein-binding protein 1, RRM domain (G3BP1, Homo sapiens, UniProt Q13283)
Sequence of UniProt Q13283 (whole entry, looked up): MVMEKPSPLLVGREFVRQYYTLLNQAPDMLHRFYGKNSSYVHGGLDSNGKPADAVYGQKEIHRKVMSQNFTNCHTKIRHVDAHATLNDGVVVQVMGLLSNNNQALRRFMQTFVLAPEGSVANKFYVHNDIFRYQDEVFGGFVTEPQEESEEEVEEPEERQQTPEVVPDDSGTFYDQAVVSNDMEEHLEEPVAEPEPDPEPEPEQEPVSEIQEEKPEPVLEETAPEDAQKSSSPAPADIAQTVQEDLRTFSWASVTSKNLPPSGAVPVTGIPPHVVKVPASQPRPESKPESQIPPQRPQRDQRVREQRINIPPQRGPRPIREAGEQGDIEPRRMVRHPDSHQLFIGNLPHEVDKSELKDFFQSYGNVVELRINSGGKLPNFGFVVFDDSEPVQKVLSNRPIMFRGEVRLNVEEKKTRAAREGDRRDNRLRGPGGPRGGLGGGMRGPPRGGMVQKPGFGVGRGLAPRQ
Shared flanks, not repeated: GGGAGUUCUACAGUCCGACGAUC … UGGAAUUCUCGGGUGUCAAGG
Strand	log2 enrichment
CCUCAAGUCCUGUGCUACACAUCGUAUGUACCGAAUCGGGAGGGUGGGAGGGAAAGUAUUAUGUUACGCCGUUCGGAUCUGCACUUCCAG	0.887
AGUCCUGUGCUACACAUCGUAUGUACCGAAUCAAACCCAAACCCCCAAACCCCCAAAAAAGUAUUAUGUUACGCCGUUCGGAUCUGCACU	-0.128
CAAGUCCUGUGCUACACAUCGUAUGUACCGAAUCGGGUGGGAAAAAAAGGGUGGGAAAGUAUUAUGUUACGCCGUUCGGAUCUGCACUUC	0.785
UCCUCAAGUCCUGUGCUACACAUCGUAUGUACCGAAUCGGUGGUUUGGAGGAAAGUAUUAUGUUACGCCGUUCGGAUCUGCACUUCCAGC	-0.216
CAAGUCCUGUGCUACACAUCGUAUGUACCGAAUCGGGCCCGGCCCGGGGCCCGGGGAAAGUAUUAUGUUACGCCGUUCGGAUCUGCACUU	-0.62
GCAGGAAGUAAAAACAAAUGGAAAUGCUUCGGAUAAAAGCAGGGGUGGGGGUUGCUAAGGAAAGGGUGGGAUGGGAGUGGGUAAAGAGUU	1.22
CUCAAGUCCUGUGCUACACAUCGUAUGUACCGAAUCGGUGGAAAAAGGAAAGGAAAGUAUUAUGUUACGCCGUUCGGAUCUGCACUUCCA	-0.148
UGUGAAAGAAAACCGAAGUUUUAAAUGACUUCUCAUGGUUAUUUUUUUUCCUUUCUCUUGCAGGACAUUGGGGACACAUUGAGCAGGUAU	-0.39
UCAAGUCCUGUGCUACACAUCGUAUGUACCGAAUCGGCCCGGGCCCGGCCCGGGGAAAGUAUUAUGUUACGCCGUUCGGAUCUGCACUUC	-0.683

A few entries again (set 3):
Strand	fitted relative affinity [z-score]
TTAGGATTGGGACTGGGTTAGTGCTAG	-0.422
TTAGAACTGGGGACTGGAGTAGTGCTA	-0.279
TTATGACTGCTACTGCTTTAGTGCTAG	-0.358
TTAGGTACCGGACTGGGTTAGTGCTAG	-0.134
GACGGACTGGGTTTCGGCACGTGCTAG	2.81
TGAGGTTTCCTTTCCCTTTAGTGCTAG	1.53
